Experimental data collected from several papers.
Parts stem from different laboratories: compare values within a part only. “And” joins repeats or separate records; there may be more than shown.

Study 1 — cell line: HEK-293T; observed: pseudovirus infection; organism: VSV pseudotyped with SARS-CoV-2 spike; concentration: 10 µM; time: 16 h; relative to: vehicle-treated
| SMILES | GFP-positive cells |
| --- | --- |
| Cc1[nH]cnc1CN1CCc2c(c3ccccc3n2C)C1=O | 83.2% |
| O=c1ccc2ccc(OCCCCN3CCN(c4cccc5sccc45)CC3)cc2[nH]1 | 74% |
| CCCNS(=O)(=O)Nc1ncnc(OCCOc2ncc(Br)cn2)c1-c1ccc(Br)cc1 | 85% |

Study 2 — observed: enzyme activity; action: inhibitor; concentration: 20 µM; notes: hit confirmation
Target: Replicase polyprotein 1ab, main protease (rep, Severe acute respiratory syndrome coronavirus 2, UniProt P0DTD1)
| SMILES | inhibition [%] |
| --- | --- |
| S=c1[nH]nc(-c2ccccc2)o1 | 13 |
| CNC(=O)ON(C(C)=O)C(=O)NC | 94.7 |
| CC(Cc1ccc(O)c(O)c1)(NN)C(=O)O (stereo not drawn) | 94.5 |

Study 3 — observed: helicase activity; action: inhibitor; technique: high-content helicase; organism: SARS-CoV-2; concentration: 20 µM
Target: Replicase polyprotein 1ab, nsp13 helicase (rep, Severe acute respiratory syndrome coronavirus 2, UniProt P0DTD1)
| SMILES | inhibition |
| --- | --- |
| Cc1ccc(S(=O)(=O)/C=C/C#N)cc1 | 101% |
| CC(=O)OC[C@H]1O[C@@H]([S-])[C@H](OC(C)=O)[C@@H](OC(C)=O)[C@@H]1OC(C)=O.CCP(CC)CC.[Au+] | 101% |
| Oc1c(I)cc(I)c(O)c1I | 101% |
| CCN(CC)C(=S)S | 87.1% |
| OC[C@H]1O[C@H]([S-])[C@H](O)[C@@H](O)[C@@H]1O.[Au+] | 101% |
| CCOC(=O)C1=C(N)Oc2ccc(Br)cc2[C@H]1[C@H](C#N)C(=O)OCC | 98% and 97.5% |
| O=C(O)c1ccc(N2C(=O)/C(=C\c3ccc(-c4ccc([N+](=O)[O-])cc4)o3)C=C2c2ccccc2)cc1 | 87.6% |
| O=C1C=CC(=O)C2=C1C1c3ccccc3C2c2ccccc21 | 102% |
| CC(C)N[C@@H]1CCn2c(=O)[nH]c3cccc(c32)[C@H]1O | 89.2% |

Further values, each from its own experiment
| SMILES | target or system | assay | system | conditions | endpoint | value |
| --- | --- | --- | --- | --- | --- | --- |
| CC(C)(Nc1nc(N2CCNCC2)nc2ccccc12)c1ccccc1 | SARS-CoV-2 | cytopathic effect | USA_WA1/2020 | round 2, 5-point | efficacy | 52.5% |
| CC[C@H](C)[C@H](NC(=O)[C@H](CC(C)C)NC(=O)[C@H](Cc1c[nH]c2ccccc12)NC(=O)[C@H](CCC(N)=O)NC(=O)[C@@H](NC(=O)[C@H](Cc1ccccc1)NC(=O)[C@H](C)NC(=O)[C@H](CCCCNC(=O)COCCOCCNC(=O)COCCOCCNC(=O)CC[C@H](NC(=O)CCCCCCCCCCCCCCCCCCC(=O)O)C(=O)O)NC(=O)[C@H](CCC(N)=O)NC(=O)[C@H](C)NC(=O)[C@@H](NC(=O)[C@H](CCCCN)NC(=O)[C@H](CC(=O)O)NC(=O)[C@H](CC(C)C)NC(=O)C(C)(C)NC(=O)[C@@H](NC(=O)[C@H](CO)NC(=O)[C@H](Cc1ccc(O)cc1)NC(=O)[C@H](CC(=O)O)NC(=O)[C@H](CO)NC(=O)[C@@H](NC(=O)[C@H](Cc1ccccc1)NC(=O)[C@@H](NC(=O)CNC(=O)[C@H](CCC(=O)O)NC(=O)C(C)(C)NC(=O)[C@@H](N)Cc1ccc(O)cc1)[C@@H](C)O)[C@@H](C)O)[C@@H](C)CC)[C@@H](C)CC)C(C)C)C(=O)N[C@@H](C)C(=O)NCC(=O)NCC(=O)N1CCC[C@H]1C(=O)N[C@@H](CO)C(=O)N[C@@H](CO)C(=O)NCC(=O)N[C@@H](C)C(=O)N1CCC[C@H]1C(=O)N1CCC[C@H]1C(=O)N1CCC[C@H]1C(=O)N[C@@H](CO)C(N)=O | – | – | healthy human | 0.5 mg, single ascending dose | cough | 16.7% |
| Clc1ccccc1C1(c2ccnc(-c3ccccc3)n2)CCNCC1 | SARS-CoV-2 | cytopathic effect | USA_WA1/2020 | retest, 8-point, duplicates | efficacy | 69.6% |

Excerpt of the above (further values, each from its own experiment):
| SMILES | target or system | assay | system | conditions | endpoint | value |
| --- | --- | --- | --- | --- | --- | --- |
| CC(C)(Nc1nc(N2CCNCC2)nc2ccccc12)c1ccccc1 | SARS-CoV-2 | cytopathic effect | USA_WA1/2020 | round 2, 5-point | efficacy | 52.5% |
| CC[C@H](C)[C@H](NC(=O)[C@H](CC(C)C)NC(=O)[C@H](Cc1c[nH]c2ccccc12)NC(=O)[C@H](CCC(N)=O)NC(=O)[C@@H](NC(=O)[C@H](Cc1ccccc1)NC(=O)[C@H](C)NC(=O)[C@H](CCCCNC(=O)COCCOCCNC(=O)COCCOCCNC(=O)CC[C@H](NC(=O)CCCCCCCCCCCCCCCCCCC(=O)O)C(=O)O)NC(=O)[C@H](CCC(N)=O)NC(=O)[C@H](C)NC(=O)[C@@H](NC(=O)[C@H](CCCCN)NC(=O)[C@H](CC(=O)O)NC(=O)[C@H](CC(C)C)NC(=O)C(C)(C)NC(=O)[C@@H](NC(=O)[C@H](CO)NC(=O)[C@H](Cc1ccc(O)cc1)NC(=O)[C@H](CC(=O)O)NC(=O)[C@H](CO)NC(=O)[C@@H](NC(=O)[C@H](Cc1ccccc1)NC(=O)[C@@H](NC(=O)CNC(=O)[C@H](CCC(=O)O)NC(=O)C(C)(C)NC(=O)[C@@H](N)Cc1ccc(O)cc1)[C@@H](C)O)[C@@H](C)O)[C@@H](C)CC)[C@@H](C)CC)C(C)C)C(=O)N[C@@H](C)C(=O)NCC(=O)NCC(=O)N1CCC[C@H]1C(=O)N[C@@H](CO)C(=O)N[C@@H](CO)C(=O)NCC(=O)N[C@@H](C)C(=O)N1CCC[C@H]1C(=O)N1CCC[C@H]1C(=O)N1CCC[C@H]1C(=O)N[C@@H](CO)C(N)=O | – | – | healthy human | 0.5 mg, single ascending dose | cough | 16.7% |
| Clc1ccccc1C1(c2ccnc(-c3ccccc3)n2)CCNCC1 | SARS-CoV-2 | cytopathic effect | USA_WA1/2020 | retest, 8-point, duplicates | efficacy | 69.6% |
